# Measurements collected from several papers.
# A part holds a random share of what one study measured.
# Sequence of UniProt Q13043 (whole entry, looked up): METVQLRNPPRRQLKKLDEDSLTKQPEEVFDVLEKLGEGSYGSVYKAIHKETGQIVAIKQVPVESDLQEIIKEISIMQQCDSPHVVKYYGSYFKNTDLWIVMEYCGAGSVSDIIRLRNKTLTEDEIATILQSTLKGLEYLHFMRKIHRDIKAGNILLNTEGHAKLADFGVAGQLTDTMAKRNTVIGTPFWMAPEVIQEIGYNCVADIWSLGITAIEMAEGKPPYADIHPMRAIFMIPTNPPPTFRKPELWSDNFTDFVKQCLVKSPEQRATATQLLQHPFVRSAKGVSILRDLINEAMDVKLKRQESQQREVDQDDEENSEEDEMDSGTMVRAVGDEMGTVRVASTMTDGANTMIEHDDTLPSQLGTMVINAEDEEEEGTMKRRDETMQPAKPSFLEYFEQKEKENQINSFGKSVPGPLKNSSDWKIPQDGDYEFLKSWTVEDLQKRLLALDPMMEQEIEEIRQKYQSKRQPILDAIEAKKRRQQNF
# Sequence of UniProt P00519 (whole entry, looked up): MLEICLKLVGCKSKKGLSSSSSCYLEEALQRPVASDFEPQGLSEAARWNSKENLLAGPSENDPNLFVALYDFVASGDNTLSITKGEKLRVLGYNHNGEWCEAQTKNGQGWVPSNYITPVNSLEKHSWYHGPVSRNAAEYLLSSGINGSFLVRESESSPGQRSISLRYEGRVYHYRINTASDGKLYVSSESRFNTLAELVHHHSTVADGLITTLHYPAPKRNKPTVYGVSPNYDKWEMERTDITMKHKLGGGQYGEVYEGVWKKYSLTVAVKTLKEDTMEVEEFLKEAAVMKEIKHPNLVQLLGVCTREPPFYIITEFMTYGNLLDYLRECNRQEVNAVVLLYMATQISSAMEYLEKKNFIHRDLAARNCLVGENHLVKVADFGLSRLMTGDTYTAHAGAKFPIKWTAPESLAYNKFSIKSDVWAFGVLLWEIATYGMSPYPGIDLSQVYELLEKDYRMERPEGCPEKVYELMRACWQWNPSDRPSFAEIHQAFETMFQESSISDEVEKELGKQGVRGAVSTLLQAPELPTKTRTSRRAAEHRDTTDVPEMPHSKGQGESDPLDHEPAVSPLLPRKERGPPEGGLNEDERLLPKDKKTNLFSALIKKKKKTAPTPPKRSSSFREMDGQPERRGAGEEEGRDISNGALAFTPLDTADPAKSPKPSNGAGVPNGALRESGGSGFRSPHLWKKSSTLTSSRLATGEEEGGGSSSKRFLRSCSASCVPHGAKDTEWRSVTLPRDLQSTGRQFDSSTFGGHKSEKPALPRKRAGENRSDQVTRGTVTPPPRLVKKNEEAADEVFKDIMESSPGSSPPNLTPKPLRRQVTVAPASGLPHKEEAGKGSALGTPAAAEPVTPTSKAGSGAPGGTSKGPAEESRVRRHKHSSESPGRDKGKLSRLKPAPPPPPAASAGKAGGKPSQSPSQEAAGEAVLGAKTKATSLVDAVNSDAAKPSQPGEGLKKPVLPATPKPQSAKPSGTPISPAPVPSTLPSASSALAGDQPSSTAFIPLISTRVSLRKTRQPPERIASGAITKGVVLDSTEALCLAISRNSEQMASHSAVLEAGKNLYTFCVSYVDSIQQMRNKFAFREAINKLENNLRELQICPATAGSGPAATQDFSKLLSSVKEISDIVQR
# Sequence of UniProt Q14164 (whole entry, looked up): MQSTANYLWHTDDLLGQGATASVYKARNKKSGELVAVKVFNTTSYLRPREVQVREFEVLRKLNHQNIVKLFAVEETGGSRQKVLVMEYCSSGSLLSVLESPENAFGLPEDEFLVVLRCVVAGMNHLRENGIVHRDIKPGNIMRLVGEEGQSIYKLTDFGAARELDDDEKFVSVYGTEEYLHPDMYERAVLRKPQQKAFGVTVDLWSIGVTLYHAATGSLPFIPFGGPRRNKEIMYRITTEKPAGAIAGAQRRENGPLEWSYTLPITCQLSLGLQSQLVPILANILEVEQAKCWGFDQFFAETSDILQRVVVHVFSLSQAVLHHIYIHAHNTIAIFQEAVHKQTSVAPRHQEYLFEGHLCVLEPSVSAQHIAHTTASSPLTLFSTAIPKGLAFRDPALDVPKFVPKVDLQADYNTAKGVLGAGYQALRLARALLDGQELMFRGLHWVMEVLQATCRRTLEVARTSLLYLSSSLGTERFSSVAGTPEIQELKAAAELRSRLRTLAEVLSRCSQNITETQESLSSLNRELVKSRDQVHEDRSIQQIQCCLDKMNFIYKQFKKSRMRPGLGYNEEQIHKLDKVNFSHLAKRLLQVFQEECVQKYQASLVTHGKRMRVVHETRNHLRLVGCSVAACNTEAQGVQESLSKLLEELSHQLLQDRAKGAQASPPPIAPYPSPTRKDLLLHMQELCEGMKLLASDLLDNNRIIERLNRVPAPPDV
# Sequence of UniProt Q00534 (whole entry, looked up): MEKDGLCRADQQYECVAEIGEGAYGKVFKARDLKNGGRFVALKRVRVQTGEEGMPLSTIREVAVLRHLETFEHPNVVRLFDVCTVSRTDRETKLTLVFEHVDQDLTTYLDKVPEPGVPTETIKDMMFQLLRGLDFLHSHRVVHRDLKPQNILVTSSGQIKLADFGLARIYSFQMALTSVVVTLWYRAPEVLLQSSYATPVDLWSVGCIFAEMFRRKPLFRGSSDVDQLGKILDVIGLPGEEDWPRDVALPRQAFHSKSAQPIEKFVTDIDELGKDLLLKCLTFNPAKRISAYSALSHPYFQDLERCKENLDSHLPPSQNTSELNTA
# Sequence of UniProt P06493 (whole entry, looked up): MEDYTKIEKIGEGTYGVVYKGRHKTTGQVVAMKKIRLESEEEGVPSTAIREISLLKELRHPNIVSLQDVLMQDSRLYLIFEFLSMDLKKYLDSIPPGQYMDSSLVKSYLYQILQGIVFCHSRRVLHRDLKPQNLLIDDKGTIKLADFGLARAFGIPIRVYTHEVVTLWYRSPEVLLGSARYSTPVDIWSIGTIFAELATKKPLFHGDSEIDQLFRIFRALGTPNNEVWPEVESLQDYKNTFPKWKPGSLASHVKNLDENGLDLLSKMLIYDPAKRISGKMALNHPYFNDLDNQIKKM
# Sequence of UniProt O14757 (whole entry, looked up): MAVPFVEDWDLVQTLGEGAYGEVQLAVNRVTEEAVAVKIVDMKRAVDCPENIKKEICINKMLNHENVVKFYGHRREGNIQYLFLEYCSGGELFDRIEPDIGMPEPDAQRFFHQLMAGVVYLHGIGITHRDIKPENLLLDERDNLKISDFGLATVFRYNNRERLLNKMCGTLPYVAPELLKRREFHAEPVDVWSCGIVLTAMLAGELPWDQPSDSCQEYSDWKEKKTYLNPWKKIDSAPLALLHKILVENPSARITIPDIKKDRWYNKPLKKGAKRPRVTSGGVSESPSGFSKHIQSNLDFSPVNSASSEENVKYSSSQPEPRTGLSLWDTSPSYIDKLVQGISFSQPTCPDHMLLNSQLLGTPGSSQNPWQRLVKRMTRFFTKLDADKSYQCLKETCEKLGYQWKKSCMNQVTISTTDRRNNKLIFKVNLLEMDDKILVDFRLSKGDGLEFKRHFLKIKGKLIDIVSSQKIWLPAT
# Sequence of UniProt Q9NRH2 (whole entry, looked up): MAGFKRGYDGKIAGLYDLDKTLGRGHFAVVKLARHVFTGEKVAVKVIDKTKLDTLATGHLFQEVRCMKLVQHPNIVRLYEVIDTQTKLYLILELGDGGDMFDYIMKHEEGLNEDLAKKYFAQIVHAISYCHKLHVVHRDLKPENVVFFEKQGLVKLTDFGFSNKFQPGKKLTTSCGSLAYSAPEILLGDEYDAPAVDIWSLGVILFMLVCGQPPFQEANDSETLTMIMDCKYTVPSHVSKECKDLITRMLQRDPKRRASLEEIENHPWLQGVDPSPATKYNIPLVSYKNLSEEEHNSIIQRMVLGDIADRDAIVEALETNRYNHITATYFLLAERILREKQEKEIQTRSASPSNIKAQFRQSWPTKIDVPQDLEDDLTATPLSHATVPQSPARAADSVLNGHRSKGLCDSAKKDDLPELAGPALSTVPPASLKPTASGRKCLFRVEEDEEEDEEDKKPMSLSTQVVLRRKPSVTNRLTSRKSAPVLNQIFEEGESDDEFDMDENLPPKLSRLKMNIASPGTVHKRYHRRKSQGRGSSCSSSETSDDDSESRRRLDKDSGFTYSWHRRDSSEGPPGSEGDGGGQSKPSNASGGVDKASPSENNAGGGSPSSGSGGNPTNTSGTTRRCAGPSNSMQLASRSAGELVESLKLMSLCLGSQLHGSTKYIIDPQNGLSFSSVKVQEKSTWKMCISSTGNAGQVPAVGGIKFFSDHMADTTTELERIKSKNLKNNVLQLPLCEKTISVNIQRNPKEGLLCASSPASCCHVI
# Sequence of UniProt Q8TDX7 (whole entry, looked up): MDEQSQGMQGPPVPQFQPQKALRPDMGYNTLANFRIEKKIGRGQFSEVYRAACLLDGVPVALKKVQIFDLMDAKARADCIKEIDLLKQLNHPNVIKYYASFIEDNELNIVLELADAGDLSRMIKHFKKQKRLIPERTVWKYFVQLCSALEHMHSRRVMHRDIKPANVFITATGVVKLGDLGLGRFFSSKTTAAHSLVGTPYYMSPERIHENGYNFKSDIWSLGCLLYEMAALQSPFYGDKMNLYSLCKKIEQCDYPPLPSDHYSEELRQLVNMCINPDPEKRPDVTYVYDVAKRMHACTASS

# Sample 1
# Structure (SMILES): CCN(CC)CCCCN1c2ccccc2Oc2ccc(Cl)cc21
# Effect on: enzyme activity
# Mode: inhibitor
# Concentration: 0.5 µM
# Relative to: control
target,remaining activity
"Cyclin-dependent kinase 1, with cyclin B (CDK1, Homo sapiens, UniProt P06493)",96.8%
"EPHB1 (Homo sapiens, UniProt P54762)",110%
"ABL1 (Homo sapiens, UniProt P00519)",107%
"Cyclin-dependent kinase 6, with cyclin D3 (CDK6, Homo sapiens, UniProt Q00534)",102%
"AXL (Homo sapiens, UniProt P30530)",95.2%
"STK17A (Homo sapiens, UniProt Q9UEE5)",96.1%

# Sample 2
# Target: Muscarinic acetylcholine receptor M2 (CHRM2, Homo sapiens, UniProt P08172)
# Sequence of UniProt P08172 (whole entry, looked up): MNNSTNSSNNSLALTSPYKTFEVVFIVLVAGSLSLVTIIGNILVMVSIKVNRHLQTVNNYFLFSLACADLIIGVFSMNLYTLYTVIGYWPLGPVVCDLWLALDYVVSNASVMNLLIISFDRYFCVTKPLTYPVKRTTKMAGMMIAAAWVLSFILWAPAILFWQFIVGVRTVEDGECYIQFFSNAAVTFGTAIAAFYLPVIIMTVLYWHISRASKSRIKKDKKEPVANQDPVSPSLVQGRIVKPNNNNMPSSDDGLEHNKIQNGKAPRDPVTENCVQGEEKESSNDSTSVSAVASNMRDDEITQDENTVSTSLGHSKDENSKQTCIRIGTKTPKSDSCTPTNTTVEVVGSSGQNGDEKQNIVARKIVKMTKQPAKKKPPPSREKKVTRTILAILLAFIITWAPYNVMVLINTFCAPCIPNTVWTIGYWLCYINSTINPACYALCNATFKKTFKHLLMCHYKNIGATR
# Effect on: ligand displacement
# Concentration: 10 µM
Compound,inhibition [%]
CN1CCN(c2ccnc(NCCc3ccccc3)n2)CC1,-1.51
NS(=O)(=O)c1cc(NC(=O)Cc2ccccc2)ccc1Oc1cccc(Cl)c1,-8.33
CCOc1ccc(S(=O)(=O)Nc2ccc(Cl)cc2C#Cc2cnc(C(=O)O)cc2OC)c2ncccc12,-0.58
CCC(=NO)C(C)=Cc1ccc(F)c(C)c1,14.3
C[C@@H]1CN(c2cc(-c3n[nH]c4ccc(OC5(C)CC5)cc34)ncn2)C[C@H](C)O1,25.9
Cn1nc(C(=O)NCc2ccc(C(=O)O)cc2)cc1-c1ccc2[nH]ccc2c1,-8.35
NC(=O)c1ccc2nc(-c3ccc(C4(N)CCC4)cc3)c(-c3ccccc3)n2n1,11.2
CNC(=O)Nc1ccc2c(c1)CC[C@]21OC(=O)N(CC(=O)N(Cc2ccc(F)cc2)[C@@H](C)C(F)(F)F)C1=O,-0.28
N#CC1(c2ccccn2)CCN(Cc2cc(C(=O)N3CCCC3)c(=O)n3ccccc23)CC1,-14
COc1cc(-c2cn(C3CCc4c(F)cccc4N(CC(F)(F)F)C3=O)nn2)ccc1-n1cnc(C)c1 (stereo not drawn),14.4
O=S(=O)(NC1CCC(c2cc(F)ccc2F)(S(=O)(=O)c2ccc(Cl)cc2)CC1)C(F)(F)F (stereo not drawn),-0.654
CN(C)C(=O)c1sc2nc(N3CCC(S(C)(=O)=O)CC3)cc(C(F)(F)F)c2c1N,13.4
COc1cccc(NC(=O)c2nc3scc(CN(C)Cc4ccccc4)c3c(=O)[nH]2)c1,26.6
Cc1noc([C@H]2C[C@@H](c3ccc(C(F)(F)F)cc3)CN(C(=O)N3CCS(=O)(=O)C3)C2)n1,39.5

# Sample 3
# Structure (SMILES): CC(C)S(=O)(=O)c1ccc2nccc(Nc3ccc4sc(C5CCCC5)nc4c3)c2c1.Cl
# Effect on: kinase activity
# Mode: inhibitor
# Concentration: 1 µM
target,remaining activity
"PRKCB (Homo sapiens, UniProt P05771)",101%
"STK4 (Homo sapiens, UniProt Q13043)",99%
"MAP4K5 (Homo sapiens, UniProt Q9Y4K4)",99%
"IKBKE (Homo sapiens, UniProt Q14164)",106%
"CDC42BPB (Homo sapiens, UniProt Q9Y5S2)",111%
"SNRK (Homo sapiens, UniProt Q9NRH2)",95%
"CHEK1 (Homo sapiens, UniProt O14757)",105%
"NEK7 (Homo sapiens, UniProt Q8TDX7)",82%

# Sample 4
# Cell line: A-375
# Concentration: 100 µM
# Time: 18 h
Structure (SMILES),viability [%]
Cc1oncc1C(=O)Nc1ccc(C(F)(F)F)cc1,51
O=C(Nc1ccccc1)OCC(CN1CCCCC1)OC(=O)Nc1ccccc1 (stereo not drawn),28.3
CCCCC(O)c1ccccc1 (stereo not drawn),75.2
Cc1ncc([N+](=O)[O-])n1CC(O)CCl (stereo not drawn),79.5
CCOC(=O)O[C@]1(C(=O)OCCl)CC[C@H]2[C@@H]3CCC4=CC(=O)C=C[C@]4(C)[C@H]3[C@@H](O)C[C@@]21C,71.7
CC(=O)OCC(COC(C)=O)OC(C)=O,91.6
Cc1noc(NS(=O)(=O)c2ccc(N)cc2)c1C,94.3
C[C@]12CCC(=O)C=C1[C@@H]1C[C@@H]1[C@H]1[C@@H]3[C@@H]4C[C@@H]4[C@@]4(CCC(=O)O4)[C@@]3(C)CC[C@@H]12,64.7
